Assay results pooled from the literature.
Each numbered part is a random draw from the data of one study; scales do not carry over between parts.

Set 1
Target: Prothrombin, mature alpha-thrombin (F2, Homo sapiens, UniProt P00734)
Method: aptamer microarray, sandwich
Molecule type: DNA with 2'F-ANA
Sample: in vitro
Concentration: 200 nM
Notes: whole 15-mer aptamer, many near background
With: Cy3 exosite-II aptamer, 400 nM
Reading: higher = stronger binding
Quantity: mean fluorescence intensity
Oligonucleotide: GGTTGGTGTGGTTGG
2'F-ANA at 5 6 8 9 14: 44.3 a.u.
2'F-ANA at 1 4 5 7 8 9 10 12 13 14 15: 50.8 a.u.
2'F-ANA at 3 4 10 11 15: 267 a.u.
2'F-ANA at 1 2 4 7 9 11 12 13 14 15: 51.5 a.u.
2'F-ANA at 1 3 4 5 6 9 12 14 15: 48.2 a.u.
2'F-ANA at 1 5 6 7 11 13: 49.4 a.u.
2'F-ANA at 2 3 4 5 10 11: 81.9 a.u.
2'F-ANA at 1 4 5 6 7 9 10 11: 46.4 a.u.
2'F-ANA at 1 2 4 5 7 11 12 13: 64.9 a.u.
2'F-ANA at 1 2 4 5 6 7 9 11 12 15: 82 a.u.
2'F-ANA at 2 4 5 7 8 9 12 13 15: 101 a.u.
2'F-ANA at 1 3 5 8 10 14 15: 46.1 a.u.
2'F-ANA at 1 4 5 6 9 11 14 15: 50.7 a.u.
2'F-ANA at 1 2 3 5 7 9 11 12: 272 a.u.
2'F-ANA at 2 3 5 6 7 8 9 10 14: 52.2 a.u.
2'F-ANA at 4 5 6 7 8 9 10 14 15: 51.1 a.u.

Set 2
Target: RNA binding protein fox-1 homolog 2, RRM domain, GST-SBP tag (RBFOX2, Homo sapiens, UniProt O43251-10, residues 100-194)
Method: RNA Bind-n-Seq
Molecule type: RNA
Sample: in vitro
Concentration: 365 nM
Notes: natural RNA segment, single round, ends assumed
Reference: no-protein control
Reading: higher = stronger binding
Quantity: RBNS enrichment (R)
Constant ends, left off below: GGGAGUUCUACAGUCCGACGAUC … UGGAAUUCUCGGGUGCCAA
Construct (chain): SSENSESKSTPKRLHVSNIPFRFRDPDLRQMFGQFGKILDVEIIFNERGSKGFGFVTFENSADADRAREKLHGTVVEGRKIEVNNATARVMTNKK
AAGAGGCGGCUACCUAUCCUACAGUUACGGUAUUUAUUUACAUAAGAAGAUCUUACAGGAGUUCUUUGCUUGAAUCCGUUCUAACACCCGCGGCAGCUGCACGCGCUCAC: 0.366
GUGGGCCCGGAGUAAUCAGGCAGCCUUCAUAGGCGGUCAUGUGUGCAUGUGAGCACAUGCGUAUAUGUGCGUCUCUCUUUCUCCCUCACCCCCAGGUGUUGCCAUUUCUC: 5.8
UAGAAAAAAAAGGAGUAAAAGGGGCGGGUUUGUUUUUUGAAGAACUGUCUUGGAUACCUAUUUAAAUGUGUGUUCUGUUUUGUUUUUUAACGAUUUUUAAAUAACGUCUG: 0.904
AUUUUAAGUACAACUUUUCAGGCUAGUUACUGUGAUGGACAUUGAGGUGUUUGUAGAACUGACUCUUAUAUAGUAAGUAAUAAUGUUUCCUUUAAAAUAAUUGGGCCAUC: 0.828
UCUUGUUUUUGUUAAUUUAUUGGAACUCUGUAUAAGGCCAUAUUUUAGUGGCUGUCUGAAACCCCAUGUGUGAAGGGCCCCUUGCCCAACAGGGUUGAGGUGGGGAGCAA: 0.353
GUUUUGUGAAAUUUUUCAUAUUUUAAUUUCAAGCUUAUUUUGGAGAGAUAGGAAGGUCAUUUCCAUGUAUGCAUAAUAAUCCUGCAAAGUACAGGUACUUUGUCUAAGAA: 1.25
AAGUCUCCUCUGGAAAUGCCAAUCCAUCCUUCCCCCAGCUGCUUCCUCGGGGAGGCCCCUGCCCCCACCCUGCCAGCCCUUCCCAGUCUCAUUAGAGGAAGCUUUCCAAA: 0.68
UGUGACUCUCCCCAAAUUGCCCUGUUGCCUUGAGCUCUUCUGAGCUAAGGCAGCCUUCAGUCCCUAUCAGCGCCUCCUUUACUUCCCAGAGAACUUCACAGAGACUCUGU: 0.459

Set 3
Target: RING finger protein unkempt homolog, zinc fingers 1-6, GST-SBP tag (UNK, Homo sapiens, UniProt Q9C0B0, residues 30-357)
Method: RNA Bind-n-Seq
Molecule type: RNA
Sample: in vitro
Concentration: not given
Notes: RNA with constant flanks, human and mouse sites, ends assumed
Reference: input RNA pool
Reading: higher = stronger binding
Quantity: bound/input enrichment
Constant ends, left off below: GGGAGUUCUACAGUCCGACGAUC … CAACAGAGGAUUGAGCAUCA
Target sequence (chain): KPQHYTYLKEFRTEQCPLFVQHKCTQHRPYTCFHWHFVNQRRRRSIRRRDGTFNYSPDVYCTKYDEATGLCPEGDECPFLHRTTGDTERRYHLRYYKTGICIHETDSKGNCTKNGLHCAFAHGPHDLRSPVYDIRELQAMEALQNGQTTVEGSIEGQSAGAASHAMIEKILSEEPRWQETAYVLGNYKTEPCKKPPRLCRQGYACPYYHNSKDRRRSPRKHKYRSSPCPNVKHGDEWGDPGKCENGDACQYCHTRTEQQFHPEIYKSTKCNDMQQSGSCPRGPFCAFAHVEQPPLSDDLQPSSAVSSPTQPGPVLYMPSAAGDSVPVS
ACAGCGUAUGACAAGCGUGCGGCGUCCAAUGCUUUCAUGAUAUGUGGGGUUCUCUAUGUGGUCAGGUCAGUGUACCAAGACAAUGAAAGCGAAGCAGGCAAGAACACCAUUGACUACAUC: 0.119 ratio
UAUUUGUCAUAGUUUUUUAAGAAGAGGACCAAACGGAAGUAUCUUAUGGUUUCUUGUUACUCUGGGUUUUAUCAUUAUAUAAGUUAUUGGGUUUUUAACAUUUUUCAACUUAUGUUCUUU: 11.5 ratio
CCCCAACCCUUUACUUAUUUGCAUACAUGUUUUCAUAGAACCUUGUAGUCUGAUAUUUAACUCCAUGAAGACUCGUCGGUAUAAAUCUCCUUGUUGUAUGCUCACCACUGGCUUUGAUUU: 1.73 ratio
GCACAACGGGUGGCAGCCUGGACGCCUGGCCCCGCCAGCAACAGGGAAGCAGCCACAGCCAGCACCAGCCGGGCAGCCUACCAGGCAGCCAUCCGGGGUGUGGGCAGUGCUCAGAGCCGG: 0.0686 ratio
CUAUGCCUAACAGAGCCCCAGUACAACUAUUGAGCAGAAUAGCUGUUUCCUGAGAAUUACCAUAGCUCACUGGGACUGGCACUCCCUAGAUAGAAACUGAUCCCAGUAAUAAACUUUGAU: 1.41 ratio
GAAGAACACUUGGCAGUAAAGCAUUUUUCUGUUGAAGGACAAUUAGAAUUCCGGGCCCUUCUUUUUGUCCCAAGACGCGCUCCUUUUGAUCUGUUUGAAAACAGAAAGAAAAAGAACAAC: 0.127 ratio
AAACUCAUCCUUAAAGGGGUCAUACUGCUGAUUGUGGACAAAGCCUUAGAAGAGCCAAAGUAUAGCUCGCUGUAUGCUCAGCUAUGUCUGCGAUUGGCAGAAGAUGCACCAAACUUUGAU: 0.139 ratio
CUUGUGGGGUUAAGGGGUAGAACCUAUCUUGCCUUCACUCUCAAGAUAACGACUCAAAUUAAGCUUUUUGAGCACCACUCUUGUGGGGACACACAUACGCUGAUCUAGGAAUGAAAUCUU: 0.345 ratio

Set 4
Target: Sal-like protein 4, full length isoform B (SALL4, Homo sapiens, UniProt Q9UJQ4-2, residues 1-616)
Method: universal PBM
Molecule type: double-stranded DNA, one strand shown
Sample: in vitro
Concentration: not given
Notes: 8-mer, flanks averaged, mean of replicates
Reading: higher = stronger binding
Quantity: E-score
ACAGACAC: -0.0155
CGCCGGTC: -0.374
ACCAGTAC: -0.0341
ACCGGAGT: -0.246
CGCGCCCC: -0.393
ACCACGTC: -0.0991
CGGCTGCC: -0.306
ACCCATAA: 0.233
AGAAGTTA: 0.15
CCTCTACA: -0.00057
GGGCGTTA: -0.00438
AGTTGGGA: -0.0792
AGCTTTCG: -0.18
GCTTATAC: 0.147
CCCCAGGC: -0.318
GCCACTGA: -0.167
CTTGATTA: 0.139
ACAGTAGG: 0.0237
ACAAGATA: 0.229
AGACATAA: 0.241
CCATTGTA: 0.186
CTACATCA: -0.0336
GTGCACAC: 0.0119
AAACAGCA: 0.206
AAAGCTAC: -0.102

Set 5
Target: Histone acetyltransferase KAT6A, winged helix 1, GST fusion (KAT6A, Homo sapiens, UniProt Q92794, residues 1-85)
Method: protein binding microarray
Molecule type: double-stranded DNA, one strand shown
Sample: in vitro
Concentration: not given
Notes: 8-mer, flanks averaged, mean of 2 arrays, mostly near background
Reference: not given
Reading: higher = stronger binding
Quantity: E-score
Target sequence (chain): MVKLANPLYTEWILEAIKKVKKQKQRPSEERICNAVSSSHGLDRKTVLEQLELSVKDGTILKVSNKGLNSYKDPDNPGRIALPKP
GTTTTTAA: 0.00892
GCCACGAC: -0.0249
ATGCAGCA: -0.246
GGTATAAC: -0.08
CGATAGAC: 0.0435
TCGGGGAA: -0.0156
GGCACCGA: 0.00024
ACTTGGTG: -0.226
AGATTGGG: -0.318
AGTTAGAT: -0.174
AAAAATAA: -0.164
ACGCATTC: 0.167
ATTTTCAG: -0.18
ACTACTAC: 0.0359
GACCCCGC: 0.398
AGTCCACG: 0.0833
ATGAATAA: -0.212
ATAACCAA: -0.231
ACTAATAA: -0.137
ACACTTCA: -0.276
CATTGTAG: -0.118
AACCCACA: -0.139
CCACCGCG: 0.27
ATGGATCC: -0.0411
AAGACAGT: -0.0406

Excerpt of the above (set 5):
ATTTTCAG: -0.18
ACTACTAC: 0.0359
GACCCCGC: 0.398
AGTCCACG: 0.0833
